Published values from different studies.
Protocols differ between the studies behind these lines.
Target: Mitogen-activated protein kinase 6 (MAPK6, Homo sapiens, UniProt Q16659)

SMILES = C=CC(=O)N1CCc2ccc(-n3c(=O)ccc4cnc5ccc(-c6cnn(C)c6)cc5c43)cc21; test = KINOMEscan; conditions = 1 µM; scale = reference: DMSO control; quantity = remaining binding; value = 100%
SMILES = C=CC(=O)Nc1cc(-c2nn(C3CCN(CCNC(=O)[C@H](C)CCC45CC6CC(CC(C6)C4)C5)CC3)c3ncnc(N)c23)ccc1Oc1ccccc1; test = inhibitor, KiNativ profiling; test system = biochemical; conditions = 2 µM; quantity = inhibition; value = 21.7%
SMILES = CNC1C[S+]2CC[S+]3CC[S+](C1)[Ru-4]321([N]=C=S)[n]2c3ccc(OC)cc3c3c4c(c5cc(F)c[n+]1c5c32)C(=O)NC4=O (stereo not shown); test = KinomeScan; conditions = 0.1 µM; scale = reference: untreated; quantity = remaining binding; value = 91%
SMILES = CC(C)=CC1OC(C)(C)C2C=C3C(=O)C(Cl)=CC(O)C3C3C(O)C4OC4C(=O)C132 (stereo not shown); test = cell-free assay, competition with immobilised ligand; conditions = 10 µM; quantity = remaining binding; value = 68%
SMILES = COc1c(Cl)cccc1Nc1c(-c2ccncc2C#C[C@@]2(C)CCCN2C(=O)/C=C/CN(C)C)[nH]c2c1C(=O)NCC2; test = binding, competition with immobilised ligand; conditions = 3 µM; quantity = remaining binding; value = 100%
SMILES = CCN1CCN(Cc2ccc(C(=O)Nc3ccc(C)c(NCc4cnc5[nH]ccc5c4OC)c3)cc2C(F)(F)F)CC1; test = binding, competition with immobilised ligand; conditions = 1 µM; quantity = remaining binding; value = 100%
SMILES = COc1cc(Nc2nc(C)cc(-c3cnn4nc(OC)ccc34)n2)cc(C(F)(F)F)c1; test = inhibitor; conditions = 1 µM, ERK3; scale = reference: control; quantity = remaining activity; value = 92%
SMILES = CNC(=O)C1CCN(c2cc(C)c(F)cc2NC(=O)c2ccc(-c3cc(O)ccc3C)c(C)c2)CC1; test = binding, competition with immobilised ligand; conditions = 1 µM; quantity = remaining binding; value = 100%
SMILES = C=CC(=O)N1CCCC(n2c(=O)c3ncccc3n(Cc3ccc(Oc4ccccc4)cc3)c2=O)C1 (stereo not shown); test = cell-free assay, competition with immobilised ligand; conditions = 1 µM; quantity = remaining binding; value = 93%
SMILES = Nc1ncc2c(n1)-c1c([nH]c3ccc(C4=CCOCC4)cc13)CCC2; test = binding, competition with immobilised ligand; conditions = 1 µM; quantity = remaining binding; value = 92%
SMILES = COc1cc(Nc2nccc(-c3cnn4nc(OC)ccc34)n2)cc(C(F)(F)F)c1; test = binding, competition with immobilised ligand; conditions = 1 µM; quantity = remaining binding; value = 100%
SMILES = Cc1cnc2nc1Nc1cccc(c1)COC/C=C/COCc1cc(ccc1OCCN1CCOCC1)N2; test = binding, competition with immobilised ligand; conditions = 0.1 µM; quantity = remaining binding; value = 88%
SMILES = Cc1ccc(-c2c(/C=C(\C#N)C(=O)NC(C)C)n(CCCO)c3ncnc(N)c23)cc1; test = cell-free assay, competition with immobilised ligand; conditions = 1 µM; quantity = remaining binding; value = 100%

A few entries again:
SMILES = C=CC(=O)N1CCc2ccc(-n3c(=O)ccc4cnc5ccc(-c6cnn(C)c6)cc5c43)cc21; test = KINOMEscan; conditions = 1 µM; scale = reference: DMSO control; quantity = remaining binding; value = 100%
SMILES = C=CC(=O)Nc1cc(-c2nn(C3CCN(CCNC(=O)[C@H](C)CCC45CC6CC(CC(C6)C4)C5)CC3)c3ncnc(N)c23)ccc1Oc1ccccc1; test = inhibitor, KiNativ profiling; test system = biochemical; conditions = 2 µM; quantity = inhibition; value = 21.7%
